Measured values from different studies.
Numbers after ± are the reported error.

| SMILES | system | setting | AUC(0-inf) |
| --- | --- | --- | --- |
| CC(C)NC[C@@H](C(=O)N1CCN(c2ncnc3c2[C@H](C)C[C@H]3O)CC1)c1ccc(Cl)cc1 | human, mild hepatic impairment (Child-Pugh), plasma | oral, 100 mg single dose, geometric mean | 322 ng·h/mL |
| C=C(C)[C@@H]1CC[C@]2(NCCN3CCS(=O)(=O)CC3)CC[C@]3(C)[C@H](CC[C@@H]4[C@@]5(C)CC=C(C6=CC[C@@](CF)(C(=O)O)CC6)C(C)(C)[C@@H]5CC[C@]43C)[C@@H]12 | healthy human volunteers, plasma | oral, 200 mg, tablet, moderate-fat state, mean | 44100 ng·h/mL |
| Cc1ccc(NC(=O)c2ccc(CN3CCN(C)CC3)cc2)cc1Nc1nccc(-c2cncc(-c3oncc3C)c2)n1 | older healthy human adults, plasma | oral, 37.5 mg single dose, fed, mean | 30900 ng·h/mL |
| CO[C@H]1C[C@@H]2CC[C@@H](C)[C@@](O)(O2)C(=O)C(=O)N2CCCC[C@H]2C(=O)O[C@H]([C@H](C)C[C@@H]2CC[C@@H](O)[C@H](OC)C2)CC(=O)[C@H](C)/C=C(\C)[C@@H](O)[C@@H](OC)C(=O)[C@H](C)C[C@H](C)/C=C/C=C/C=C/1C | human, whole blood | oral, 20 mg, together with: grapefruit juice | 2800 ng·h/mL |
| CCCC[C@H](NC(C)=O)C(=O)N[C@H]1CCC(=O)NC[C@@H](C(=O)N[C@@H](Cc2c[nH]c3ccccc23)C(N)=O)NC(=O)[C@H](CCCNC(=N)N)NC(=O)[C@@H](Cc2ccccc2)NC(=O)[C@H](Cc2c[nH]cn2)NC1=O | healthy human, both sexes, plasma | subcutaneous, 3.0 mg once daily, day 7, geometric mean | 199 ng·h/mL |
| C=CC(=O)Nc1cc(Nc2ncc(C(=O)OC(C)C)c(-c3cn(C)c4ccccc34)n2)c(OC)cc1N(C)CCN(C)C | human, fasted | oral, 80 mg single dose, arithmetic mean | 308 ng·h/mL |
| CN[C@@H]1COc2c(S(=O)(=O)NC(=O)Nc3c4c(cc5c3CCC5)CCC4)cnn2C1 | human | oral, 600 mg, high-fat meal, geometric LS mean | 147000 ng·h/mL |
| CN[C@H]1CN(c2ccc3c(=O)c(C(=O)O)cn(-c4nccs4)c3n2)C[C@@H]1OC | human patients, plasma | intravenous, 9 to 50 mg/m^2 twice weekly, day 4, cycle 1, mean, noncompartmental | 17100 ng·h/mL |
| CC(=O)O[C@H]1C(=O)[C@@]2(C)[C@H]([C@H](OC(=O)c3ccccc3)[C@]3(O)C[C@H](OC(=O)[C@H](O)[C@@H](NC(=O)c4ccccc4)c4ccccc4)C(C)=C1C3(C)C)[C@]1(OC(C)=O)CO[C@@H]1C[C@@H]2O | human patients on any protease inhibitor, plasma | iv, 100 mg/m^2 over 3 h, cycle 1 | 5.5 ± 2.2 µM·h |
| CC(=O)Nc1ccc(O[C@@H]2O[C@H](C(=O)O)[C@@H](O)[C@H](O)[C@H]2O)cc1 | healthy human volunteers | oral, 650 mg, day 1, acetaminophen alone | 81600 ng·h/mL |
| COc1ccc(C[C@@H](C)[C@@H](C)Cc2ccc(OC)c(OC)c2)cc1OC | human patients, fasted | oral, 3600 mg, cycle 1 day 1 | 2600 ± 2300 ng·h/mL |

Excerpt of the above:
| SMILES | system | setting | AUC(0-inf) |
| --- | --- | --- | --- |
| CN[C@H]1CN(c2ccc3c(=O)c(C(=O)O)cn(-c4nccs4)c3n2)C[C@@H]1OC | human patients, plasma | intravenous, 9 to 50 mg/m^2 twice weekly, day 4, cycle 1, mean, noncompartmental | 17100 ng·h/mL |
| CC(=O)Nc1ccc(O[C@@H]2O[C@H](C(=O)O)[C@@H](O)[C@H](O)[C@H]2O)cc1 | healthy human volunteers | oral, 650 mg, day 1, acetaminophen alone | 81600 ng·h/mL |
